Assay results of several laboratories.
Parts stem from different laboratories: compare values within a part only. Values joined by “and” are separate records of one study, mostly repeats; a detail may differ.
Sequence of UniProt O43603 (whole entry, looked up): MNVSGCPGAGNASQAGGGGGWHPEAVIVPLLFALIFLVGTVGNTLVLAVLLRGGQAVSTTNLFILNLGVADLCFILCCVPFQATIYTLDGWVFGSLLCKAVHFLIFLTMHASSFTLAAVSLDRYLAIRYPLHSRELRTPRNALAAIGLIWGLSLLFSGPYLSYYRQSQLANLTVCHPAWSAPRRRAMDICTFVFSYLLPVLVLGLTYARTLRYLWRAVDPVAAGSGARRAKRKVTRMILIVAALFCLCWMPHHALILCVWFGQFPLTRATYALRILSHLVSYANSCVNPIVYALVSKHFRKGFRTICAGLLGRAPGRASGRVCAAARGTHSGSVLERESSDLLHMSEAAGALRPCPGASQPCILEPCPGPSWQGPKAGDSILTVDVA
Sequence of UniProt P21731 (whole entry, looked up): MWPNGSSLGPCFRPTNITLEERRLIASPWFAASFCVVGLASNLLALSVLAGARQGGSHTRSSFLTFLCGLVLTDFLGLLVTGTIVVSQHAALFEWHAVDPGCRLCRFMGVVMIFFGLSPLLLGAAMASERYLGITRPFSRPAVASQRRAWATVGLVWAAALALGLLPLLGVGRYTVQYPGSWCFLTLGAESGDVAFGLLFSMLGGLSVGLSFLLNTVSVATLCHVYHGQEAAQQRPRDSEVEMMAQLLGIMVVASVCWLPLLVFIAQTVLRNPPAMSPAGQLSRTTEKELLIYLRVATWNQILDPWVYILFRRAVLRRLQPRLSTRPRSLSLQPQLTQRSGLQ
Sequence of UniProt Q99683 (whole entry, looked up): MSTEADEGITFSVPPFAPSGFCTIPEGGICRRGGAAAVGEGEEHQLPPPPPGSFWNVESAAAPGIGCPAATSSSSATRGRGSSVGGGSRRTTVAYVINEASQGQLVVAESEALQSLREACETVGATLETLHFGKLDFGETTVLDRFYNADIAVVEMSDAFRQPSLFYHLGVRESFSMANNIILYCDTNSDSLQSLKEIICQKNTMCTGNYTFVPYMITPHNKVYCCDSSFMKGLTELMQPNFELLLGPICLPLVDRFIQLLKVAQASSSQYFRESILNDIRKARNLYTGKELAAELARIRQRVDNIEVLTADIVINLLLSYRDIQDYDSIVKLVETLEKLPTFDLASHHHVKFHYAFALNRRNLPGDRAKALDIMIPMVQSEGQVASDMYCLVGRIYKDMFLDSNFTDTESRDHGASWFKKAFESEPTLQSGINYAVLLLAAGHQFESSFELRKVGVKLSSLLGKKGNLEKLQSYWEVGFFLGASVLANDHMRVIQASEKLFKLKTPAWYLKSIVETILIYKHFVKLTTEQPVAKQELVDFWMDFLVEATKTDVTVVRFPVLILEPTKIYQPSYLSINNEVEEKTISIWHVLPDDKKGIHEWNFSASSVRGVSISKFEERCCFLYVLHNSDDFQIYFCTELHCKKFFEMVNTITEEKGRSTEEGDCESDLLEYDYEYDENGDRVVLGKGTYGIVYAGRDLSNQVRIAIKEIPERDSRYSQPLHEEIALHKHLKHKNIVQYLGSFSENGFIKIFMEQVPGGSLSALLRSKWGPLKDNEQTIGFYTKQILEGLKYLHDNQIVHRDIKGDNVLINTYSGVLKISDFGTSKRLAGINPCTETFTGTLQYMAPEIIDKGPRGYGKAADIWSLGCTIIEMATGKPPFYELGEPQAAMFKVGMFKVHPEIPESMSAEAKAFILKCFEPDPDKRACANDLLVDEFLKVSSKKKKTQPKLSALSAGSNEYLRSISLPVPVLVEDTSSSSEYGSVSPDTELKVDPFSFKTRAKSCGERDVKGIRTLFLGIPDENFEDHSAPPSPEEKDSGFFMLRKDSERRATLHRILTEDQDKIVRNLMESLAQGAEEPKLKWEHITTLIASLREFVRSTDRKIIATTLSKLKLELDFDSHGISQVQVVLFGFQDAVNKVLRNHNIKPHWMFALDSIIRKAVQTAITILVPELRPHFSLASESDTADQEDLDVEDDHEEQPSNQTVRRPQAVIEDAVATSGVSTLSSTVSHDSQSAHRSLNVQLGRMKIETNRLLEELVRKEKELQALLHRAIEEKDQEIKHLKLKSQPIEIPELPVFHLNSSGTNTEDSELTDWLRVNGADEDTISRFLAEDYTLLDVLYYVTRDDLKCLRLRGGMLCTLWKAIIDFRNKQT
Sequence of UniProt P20309 (whole entry, looked up): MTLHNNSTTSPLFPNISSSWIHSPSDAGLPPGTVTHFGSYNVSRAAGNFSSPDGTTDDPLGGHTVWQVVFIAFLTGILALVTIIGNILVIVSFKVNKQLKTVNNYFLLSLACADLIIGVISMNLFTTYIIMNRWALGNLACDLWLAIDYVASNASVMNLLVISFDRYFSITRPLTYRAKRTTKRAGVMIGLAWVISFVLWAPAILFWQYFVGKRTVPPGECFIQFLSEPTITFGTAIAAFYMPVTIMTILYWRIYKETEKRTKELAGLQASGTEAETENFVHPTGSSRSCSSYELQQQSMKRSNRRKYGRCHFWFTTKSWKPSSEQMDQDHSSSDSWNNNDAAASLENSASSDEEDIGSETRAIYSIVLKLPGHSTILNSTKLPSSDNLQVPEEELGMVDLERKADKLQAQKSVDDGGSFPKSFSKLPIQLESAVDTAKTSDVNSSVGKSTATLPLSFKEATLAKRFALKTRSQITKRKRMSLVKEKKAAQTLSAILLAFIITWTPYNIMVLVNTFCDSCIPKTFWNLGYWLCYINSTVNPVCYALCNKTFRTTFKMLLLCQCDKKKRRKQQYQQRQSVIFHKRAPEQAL
Sequence of UniProt P07550 (whole entry, looked up): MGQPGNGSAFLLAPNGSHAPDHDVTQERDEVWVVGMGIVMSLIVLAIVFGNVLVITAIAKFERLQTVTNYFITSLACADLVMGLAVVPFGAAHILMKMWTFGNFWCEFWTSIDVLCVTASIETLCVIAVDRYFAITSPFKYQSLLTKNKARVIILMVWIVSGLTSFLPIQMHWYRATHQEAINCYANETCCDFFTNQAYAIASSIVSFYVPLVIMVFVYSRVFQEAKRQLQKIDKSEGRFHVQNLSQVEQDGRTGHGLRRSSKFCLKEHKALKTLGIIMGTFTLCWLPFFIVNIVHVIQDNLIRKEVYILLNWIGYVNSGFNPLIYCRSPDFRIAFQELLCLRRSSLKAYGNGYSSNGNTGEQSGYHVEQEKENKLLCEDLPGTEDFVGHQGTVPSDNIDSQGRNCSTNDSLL
Sequence of UniProt O60755 (whole entry, looked up): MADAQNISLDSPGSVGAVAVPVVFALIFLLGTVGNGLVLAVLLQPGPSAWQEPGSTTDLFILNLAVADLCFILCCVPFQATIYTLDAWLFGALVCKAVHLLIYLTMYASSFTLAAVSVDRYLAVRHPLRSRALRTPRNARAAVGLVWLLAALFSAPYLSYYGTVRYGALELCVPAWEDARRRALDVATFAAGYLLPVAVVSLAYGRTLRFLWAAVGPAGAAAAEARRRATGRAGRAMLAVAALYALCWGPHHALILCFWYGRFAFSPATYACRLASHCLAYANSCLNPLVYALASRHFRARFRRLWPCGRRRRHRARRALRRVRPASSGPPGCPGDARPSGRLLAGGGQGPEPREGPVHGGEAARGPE
Sequence of UniProt Q8TDT2 (whole entry, looked up): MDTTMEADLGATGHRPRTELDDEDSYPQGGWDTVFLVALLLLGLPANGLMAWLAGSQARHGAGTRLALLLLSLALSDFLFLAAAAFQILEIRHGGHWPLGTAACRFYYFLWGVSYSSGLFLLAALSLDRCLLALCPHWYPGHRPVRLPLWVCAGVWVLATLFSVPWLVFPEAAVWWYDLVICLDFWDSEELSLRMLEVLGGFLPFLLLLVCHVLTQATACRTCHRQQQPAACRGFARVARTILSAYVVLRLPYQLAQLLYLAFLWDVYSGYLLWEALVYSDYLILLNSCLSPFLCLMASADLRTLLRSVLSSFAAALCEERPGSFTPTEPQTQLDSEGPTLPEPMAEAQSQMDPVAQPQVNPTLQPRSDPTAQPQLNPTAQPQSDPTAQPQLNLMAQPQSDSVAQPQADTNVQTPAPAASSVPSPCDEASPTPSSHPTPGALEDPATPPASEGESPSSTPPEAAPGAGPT
Sequence of UniProt O14804 (whole entry, looked up): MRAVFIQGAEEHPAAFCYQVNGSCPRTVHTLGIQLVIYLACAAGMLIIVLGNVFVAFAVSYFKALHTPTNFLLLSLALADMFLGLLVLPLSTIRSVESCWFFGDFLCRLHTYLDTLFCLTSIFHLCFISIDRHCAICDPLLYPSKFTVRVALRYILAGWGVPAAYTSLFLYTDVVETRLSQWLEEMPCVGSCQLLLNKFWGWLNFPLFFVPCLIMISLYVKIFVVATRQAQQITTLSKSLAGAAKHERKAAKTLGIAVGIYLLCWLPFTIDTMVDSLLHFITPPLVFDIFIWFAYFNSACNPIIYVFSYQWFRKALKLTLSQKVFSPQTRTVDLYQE

Sample 1 — Structure (SMILES): NC(N)=NC(=O)c1nc(Cl)c(N2CCCCCC2)nc1N; observed: β-arrestin recruitment; action: agonist; method: PRESTO-Tango; tested at: 10 µM; relative to: untreated
| target | fold over basal |
| --- | --- |
| GALR2 (Homo sapiens, UniProt O43603) | 0.58 fold |
| AVPR1B (Homo sapiens, UniProt P47901) | 0.5 |
| TAAR5 (Homo sapiens, UniProt O14804) | 1 fold |
| Galanin receptor type 3 (Homo sapiens, UniProt O60755) | 0.68 fold |
| ADRB2 (Homo sapiens, UniProt P07550) | 1.01 |
| CHRM3 (Homo sapiens, UniProt P20309) | 0.7 |
| Probable G-protein coupled receptor 152 (GPR152, Homo sapiens, UniProt Q8TDT2) | 0.55 |
| TBXA2R (Homo sapiens, UniProt P21731) | 0.69 fold |

Sample 2 — method: Incucyte 3D growth; tested at: 30 µM; reading: higher = more growth
SMILES: CC(C)(C(=O)O)[C@H](NC(=O)Cc1cccc(I)c1)c1ccc2oc(=O)[nH]c2c1
| cell line | conditions | spheroid area |
| --- | --- | --- |
| MEL-JUSO | 18.52 h | 9.07e+06 a.u. and 1.1e+07 a.u. and 7.84e+06 a.u. and 8.9e+06 a.u. and 1.04e+07 a.u. |
| IPC-298 | 102 h | 2.71e+07 a.u. and 2.07e+07 a.u. and 2.49e+07 a.u. and 2.97e+07 a.u. and 3.31e+07 a.u. and 2.77e+07 a.u. |
| NCI-H358 | 174 h | 9.36e+06 a.u. and 6.39e+06 a.u. and 6.06e+06 a.u. and 6.18e+06 a.u. and 8.16e+06 a.u. and 6.19e+06 a.u. |
| A375 | 270.52 h | 1.75e+08 a.u. and 1.77e+08 a.u. and 1.99e+08 a.u. and 2.03e+08 a.u. and 1.79e+08 a.u. and 1.86e+08 a.u. |
| KP-4 | 198 h | 3.05e+07 a.u. and 3.12e+07 a.u. and 1.85e+07 a.u. and 3.51e+07 a.u. and 3.21e+07 a.u. and 4.86e+07 a.u. |
| PC-9 | 30 h | 3.19e+08 a.u. and 3.17e+08 a.u. and 3.25e+08 a.u. and 3.44e+08 a.u. and 3.34e+08 a.u. |
| PC-9 | 78 h | 5.83e+08 a.u. and 5.97e+08 a.u. and 5.94e+08 a.u. and 5.93e+08 a.u. and 5.71e+08 a.u. |
| MEL-JUSO | 72.52 h | 1.39e+07 a.u. and 1.46e+07 a.u. and 1.24e+07 a.u. and 1.26e+07 a.u. and 1.09e+07 a.u. and 1.4e+07 a.u. |

Sample 3 — observed: enzyme activity; action: inhibitor; tested at: 10 µM
Target: Calcium/calmodulin-dependent protein kinase type II subunit alpha (CAMK2A, Homo sapiens, UniProt Q9UQM7)
Sequence of UniProt Q9UQM7 (whole entry, looked up): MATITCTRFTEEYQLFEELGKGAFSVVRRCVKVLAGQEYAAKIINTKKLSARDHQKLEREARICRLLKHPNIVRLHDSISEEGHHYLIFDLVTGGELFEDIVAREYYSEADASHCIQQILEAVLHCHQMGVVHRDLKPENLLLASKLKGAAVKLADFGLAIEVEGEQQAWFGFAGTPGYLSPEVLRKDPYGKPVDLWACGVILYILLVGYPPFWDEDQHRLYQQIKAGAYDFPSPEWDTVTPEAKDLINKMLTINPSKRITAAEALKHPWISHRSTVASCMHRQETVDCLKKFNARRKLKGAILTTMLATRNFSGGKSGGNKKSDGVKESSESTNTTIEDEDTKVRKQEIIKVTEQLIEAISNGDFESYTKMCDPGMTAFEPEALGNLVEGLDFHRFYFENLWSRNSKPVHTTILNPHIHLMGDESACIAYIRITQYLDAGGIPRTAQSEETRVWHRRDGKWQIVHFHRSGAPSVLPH
| SMILES | inhibition [%] |
| --- | --- |
| CCc1cnn2c(NCc3ccc[n+]([O-])c3)cc(N3CCCC[C@H]3CCO)nc12 | 2 |
| Cc1ccc(C=O)s1 | -8 |
| O=C1OC2(c3ccc(O)cc3Oc3cc(O)ccc32)c2ccccc21 | 2 |
| CCCCC(O)C(=O)O (stereo not shown) | 31 |
| CCC[S+]([O-])c1ccc2[nH]c(NC(=O)OC)nc2c1 (stereo not shown) | -7 |
| C[C@@H]1CC(=O)NN=C1c1ccc(NN=C(C#N)C#N)cc1 | -4 |
| CC(C)(COP(=O)(O)OP(=O)(O)OC[C@H]1O[C@@H](n2cnc3c(N)ncnc32)[C@H](O)[C@@H]1OP(=O)(O)O)[C@@H](O)C(=O)NCCC(=O)NCCS | -1 |
| COc1c(O[C@@H]2O[C@H](CO)[C@@H](O)[C@H](O)[C@H]2O)cc2c(c1O)C(=O)c1c(cc(C)c(O)c1OC)C2=O | -1 |

Further values, each from its own experiment
| Compound | target | assay | conditions | how to read | measurement | result |
| --- | --- | --- | --- | --- | --- | --- |
| COc1ccc2c(c[n+](C)c3c4cc5c(cc4ccc23)OCO5)c1OC | Mitogen-activated protein kinase kinase kinase 5 (MAP3K5, Homo sapiens, UniProt Q99683) | enzyme activity, inhibitor | 0.5 µM | relative to: control | remaining activity | 114% |

For quick reference, copied from above (sample 2):
| cell line | conditions | spheroid area |
| --- | --- | --- |
| PC-9 | 30 h | 3.19e+08 a.u. and 3.17e+08 a.u. and 3.25e+08 a.u. and 3.44e+08 a.u. and 3.34e+08 a.u. |
| PC-9 | 78 h | 5.83e+08 a.u. and 5.97e+08 a.u. and 5.94e+08 a.u. and 5.93e+08 a.u. and 5.71e+08 a.u. |
